Assay results gathered from unrelated publications.
Every numbered part comes from another study and shows a few of its results, in no order.
Sequence of UniProt Q9H4A3 (whole entry, looked up): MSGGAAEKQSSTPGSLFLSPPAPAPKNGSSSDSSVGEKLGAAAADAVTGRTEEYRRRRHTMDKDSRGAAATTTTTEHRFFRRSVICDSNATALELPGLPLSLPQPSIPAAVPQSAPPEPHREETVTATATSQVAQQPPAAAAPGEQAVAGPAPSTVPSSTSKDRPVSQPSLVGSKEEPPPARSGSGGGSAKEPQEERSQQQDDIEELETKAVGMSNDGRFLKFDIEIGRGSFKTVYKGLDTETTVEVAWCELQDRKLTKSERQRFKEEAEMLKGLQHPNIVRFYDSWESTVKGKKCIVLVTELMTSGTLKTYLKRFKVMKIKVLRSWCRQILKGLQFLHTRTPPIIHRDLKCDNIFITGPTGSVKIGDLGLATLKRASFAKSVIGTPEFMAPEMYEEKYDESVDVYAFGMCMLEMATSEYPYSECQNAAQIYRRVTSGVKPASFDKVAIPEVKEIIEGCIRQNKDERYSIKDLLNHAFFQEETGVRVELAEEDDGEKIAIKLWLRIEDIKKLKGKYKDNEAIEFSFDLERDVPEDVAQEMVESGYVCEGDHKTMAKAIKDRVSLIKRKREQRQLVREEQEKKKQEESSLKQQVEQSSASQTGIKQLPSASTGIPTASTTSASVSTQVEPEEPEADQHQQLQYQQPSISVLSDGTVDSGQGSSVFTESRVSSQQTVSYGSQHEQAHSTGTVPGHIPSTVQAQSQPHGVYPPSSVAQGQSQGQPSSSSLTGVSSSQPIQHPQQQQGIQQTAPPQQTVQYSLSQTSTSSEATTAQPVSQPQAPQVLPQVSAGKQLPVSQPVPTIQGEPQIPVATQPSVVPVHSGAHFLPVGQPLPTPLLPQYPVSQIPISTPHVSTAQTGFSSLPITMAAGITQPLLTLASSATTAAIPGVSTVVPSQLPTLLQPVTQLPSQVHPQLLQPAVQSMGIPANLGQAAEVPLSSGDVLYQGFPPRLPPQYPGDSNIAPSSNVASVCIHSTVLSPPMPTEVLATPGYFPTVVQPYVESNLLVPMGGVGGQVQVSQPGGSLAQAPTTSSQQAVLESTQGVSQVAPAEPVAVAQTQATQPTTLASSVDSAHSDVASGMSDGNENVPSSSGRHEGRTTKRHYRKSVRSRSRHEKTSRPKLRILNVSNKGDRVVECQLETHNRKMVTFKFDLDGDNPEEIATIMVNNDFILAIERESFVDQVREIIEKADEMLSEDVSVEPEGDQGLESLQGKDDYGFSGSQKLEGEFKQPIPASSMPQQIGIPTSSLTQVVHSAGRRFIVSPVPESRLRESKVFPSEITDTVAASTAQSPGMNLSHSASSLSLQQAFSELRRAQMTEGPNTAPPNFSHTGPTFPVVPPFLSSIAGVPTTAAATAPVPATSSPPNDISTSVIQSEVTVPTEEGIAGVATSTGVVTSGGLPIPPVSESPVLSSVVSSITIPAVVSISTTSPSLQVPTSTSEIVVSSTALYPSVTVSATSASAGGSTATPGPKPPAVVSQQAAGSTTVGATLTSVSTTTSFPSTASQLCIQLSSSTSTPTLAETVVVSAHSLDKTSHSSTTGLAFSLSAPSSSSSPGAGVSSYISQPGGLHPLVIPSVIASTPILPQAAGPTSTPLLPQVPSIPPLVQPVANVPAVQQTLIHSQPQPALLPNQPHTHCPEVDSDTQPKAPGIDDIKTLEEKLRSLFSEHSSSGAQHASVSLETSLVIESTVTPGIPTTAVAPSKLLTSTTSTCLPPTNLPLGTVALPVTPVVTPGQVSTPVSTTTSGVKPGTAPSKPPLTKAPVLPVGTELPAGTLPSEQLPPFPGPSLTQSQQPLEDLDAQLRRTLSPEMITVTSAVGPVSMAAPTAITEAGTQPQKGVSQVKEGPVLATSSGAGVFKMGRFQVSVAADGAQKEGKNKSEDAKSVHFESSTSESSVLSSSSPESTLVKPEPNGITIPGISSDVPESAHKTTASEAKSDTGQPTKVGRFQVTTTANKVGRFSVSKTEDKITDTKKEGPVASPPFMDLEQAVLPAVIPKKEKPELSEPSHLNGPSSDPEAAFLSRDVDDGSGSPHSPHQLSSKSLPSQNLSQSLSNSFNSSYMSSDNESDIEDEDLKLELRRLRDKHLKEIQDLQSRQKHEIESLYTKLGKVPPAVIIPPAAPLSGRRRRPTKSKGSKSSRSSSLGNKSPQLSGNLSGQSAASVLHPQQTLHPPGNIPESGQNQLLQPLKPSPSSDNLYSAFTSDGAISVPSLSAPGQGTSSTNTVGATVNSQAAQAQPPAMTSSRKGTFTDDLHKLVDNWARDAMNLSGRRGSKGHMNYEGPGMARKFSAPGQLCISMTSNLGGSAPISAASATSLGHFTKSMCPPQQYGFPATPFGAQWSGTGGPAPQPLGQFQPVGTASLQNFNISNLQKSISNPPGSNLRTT
Sequence of UniProt P42336 (whole entry, unmodified, looked up): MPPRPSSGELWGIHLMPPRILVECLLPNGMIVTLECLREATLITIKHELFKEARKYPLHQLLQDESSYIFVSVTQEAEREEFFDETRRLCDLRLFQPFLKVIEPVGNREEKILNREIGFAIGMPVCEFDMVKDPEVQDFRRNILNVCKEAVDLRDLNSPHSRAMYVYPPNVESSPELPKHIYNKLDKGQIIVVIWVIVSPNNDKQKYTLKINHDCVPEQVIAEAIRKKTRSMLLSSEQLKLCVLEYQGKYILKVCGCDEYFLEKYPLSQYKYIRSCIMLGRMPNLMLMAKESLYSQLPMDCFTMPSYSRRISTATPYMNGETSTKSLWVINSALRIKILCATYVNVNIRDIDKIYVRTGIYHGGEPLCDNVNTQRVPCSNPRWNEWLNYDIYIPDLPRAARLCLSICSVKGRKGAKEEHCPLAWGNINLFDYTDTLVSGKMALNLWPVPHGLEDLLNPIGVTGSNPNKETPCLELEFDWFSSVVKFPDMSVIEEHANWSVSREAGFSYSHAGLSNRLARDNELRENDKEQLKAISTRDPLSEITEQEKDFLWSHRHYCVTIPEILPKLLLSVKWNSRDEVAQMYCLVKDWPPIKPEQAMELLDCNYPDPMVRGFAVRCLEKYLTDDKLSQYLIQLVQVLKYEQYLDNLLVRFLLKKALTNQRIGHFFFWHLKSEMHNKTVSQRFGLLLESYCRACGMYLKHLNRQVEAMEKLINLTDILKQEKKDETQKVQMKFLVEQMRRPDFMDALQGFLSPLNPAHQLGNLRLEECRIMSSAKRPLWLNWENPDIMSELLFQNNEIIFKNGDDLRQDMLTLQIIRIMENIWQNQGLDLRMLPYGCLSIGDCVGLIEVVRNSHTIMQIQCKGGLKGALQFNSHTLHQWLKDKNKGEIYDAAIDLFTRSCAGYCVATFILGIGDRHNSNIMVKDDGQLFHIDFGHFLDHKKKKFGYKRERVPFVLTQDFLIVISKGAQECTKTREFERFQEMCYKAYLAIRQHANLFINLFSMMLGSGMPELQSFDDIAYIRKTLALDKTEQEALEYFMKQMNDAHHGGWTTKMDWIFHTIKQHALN
Sequence of UniProt P37173 (whole entry, looked up): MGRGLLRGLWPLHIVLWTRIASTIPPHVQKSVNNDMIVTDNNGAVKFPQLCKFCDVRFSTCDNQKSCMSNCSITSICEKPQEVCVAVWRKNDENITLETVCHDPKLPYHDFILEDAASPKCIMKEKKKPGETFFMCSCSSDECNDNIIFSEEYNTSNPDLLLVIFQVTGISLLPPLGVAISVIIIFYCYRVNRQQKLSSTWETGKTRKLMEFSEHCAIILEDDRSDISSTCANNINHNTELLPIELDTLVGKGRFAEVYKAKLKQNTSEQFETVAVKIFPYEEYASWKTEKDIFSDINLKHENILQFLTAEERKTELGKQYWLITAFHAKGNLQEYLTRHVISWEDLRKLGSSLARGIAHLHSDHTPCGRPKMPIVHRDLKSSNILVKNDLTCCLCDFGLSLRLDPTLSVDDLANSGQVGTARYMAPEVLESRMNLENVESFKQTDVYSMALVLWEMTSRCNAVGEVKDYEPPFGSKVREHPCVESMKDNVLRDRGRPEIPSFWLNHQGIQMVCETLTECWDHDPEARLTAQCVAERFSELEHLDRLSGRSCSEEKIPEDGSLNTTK

Set 1 — effect on: enzyme activity; mode: inhibitor; tested at: 0.5 µM; baseline: control
Target: Focal adhesion kinase 1 (PTK2, Homo sapiens, UniProt Q05397)
Sequence of UniProt Q05397 (whole entry, looked up): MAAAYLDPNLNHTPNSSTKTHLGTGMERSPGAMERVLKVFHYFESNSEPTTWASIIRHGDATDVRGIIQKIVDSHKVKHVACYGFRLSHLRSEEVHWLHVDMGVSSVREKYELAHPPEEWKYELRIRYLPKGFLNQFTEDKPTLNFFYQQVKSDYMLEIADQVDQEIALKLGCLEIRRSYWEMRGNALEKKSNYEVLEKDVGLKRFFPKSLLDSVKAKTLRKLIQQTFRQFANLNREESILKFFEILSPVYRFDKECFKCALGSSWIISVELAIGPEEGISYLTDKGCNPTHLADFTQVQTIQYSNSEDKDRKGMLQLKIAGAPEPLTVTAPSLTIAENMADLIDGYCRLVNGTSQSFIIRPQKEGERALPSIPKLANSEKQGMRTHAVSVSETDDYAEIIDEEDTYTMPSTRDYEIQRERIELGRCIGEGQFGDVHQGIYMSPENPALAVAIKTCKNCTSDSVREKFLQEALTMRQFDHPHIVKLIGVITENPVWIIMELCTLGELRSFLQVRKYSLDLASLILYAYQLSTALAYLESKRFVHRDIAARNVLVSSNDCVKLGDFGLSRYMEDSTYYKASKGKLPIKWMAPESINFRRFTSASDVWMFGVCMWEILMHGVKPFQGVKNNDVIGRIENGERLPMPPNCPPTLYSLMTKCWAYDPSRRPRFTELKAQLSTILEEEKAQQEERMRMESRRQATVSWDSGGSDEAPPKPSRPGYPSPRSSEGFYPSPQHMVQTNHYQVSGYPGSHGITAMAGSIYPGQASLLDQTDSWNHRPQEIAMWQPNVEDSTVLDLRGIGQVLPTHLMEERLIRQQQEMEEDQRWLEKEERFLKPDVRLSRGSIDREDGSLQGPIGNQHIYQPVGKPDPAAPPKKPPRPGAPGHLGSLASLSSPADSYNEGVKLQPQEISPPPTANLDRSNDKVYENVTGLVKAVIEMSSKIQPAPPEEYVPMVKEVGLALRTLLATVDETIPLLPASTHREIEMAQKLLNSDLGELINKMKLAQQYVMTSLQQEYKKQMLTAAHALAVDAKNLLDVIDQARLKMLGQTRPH
Structure (SMILES) | remaining activity [%]
COc1ccc(OC)c2c(=S)c3ccccc3[nH]c12 | 106
OCC(O)CCON=C1C(c2c(O)[nH]c3ccccc23)=Nc2ccccc21 (stereo not drawn) | 35
Nc1ncnc2n[nH]c(Nc3ccc(F)cc3)c12 | 103
O=C1NC(=O)C(c2cn(CCCO)c3ncccc23)=C1c1cnccn1 | 101
N#CC(C#N)=C(N)/C(C#N)=C/c1ccc(O)cc1 | 98.5
NCCNc1ncc(C(N)=O)c(Nc2cccc(C(F)(F)F)c2)n1 | 44
Cn1sc(=O)n(Cc2ccccc2)c1=O | 99.5
O=C(Nc1cccc(Nc2cc(Nc3cccc(C(F)(F)F)c3)ncn2)c1)C1CC1 | 105
O=c1c2ccccc2[nH]c(=S)n1CCN1CCC(=C(c2ccc(F)cc2)c2ccc(F)cc2)CC1 | 105
O=C(O)c1ccc2c3c1cccc3c(=O)n1c3ccccc3nc21 | 97.5
O=C(CCCc1ccc(-c2ccccc2F)cc1)Nc1ccc(O)cc1 | 102
CCOC(=O)c1c(C)[nH]c(/C=C2\C(=O)Nc3ccccc32)c1C | 93
Nc1ccc2ncnc(NCCc3ccc(Oc4ccccc4)cc3)c2c1 | 98.6
Oc1ccc(-c2nc(-c3ccncc3)c(-c3ccc(F)cc3)[nH]2)cc1 | 96.9

Set 2 — method: RNA Bind-n-Seq; form: RNA; sample: in vitro; tested at: 365 nM; baseline: no-protein control; reading: higher = stronger binding
Target: RNA binding protein fox-1 homolog 2, RRM domain, GST-SBP tag (RBFOX2, Homo sapiens, UniProt O43251-10, residues 100-194)
Setting: natural RNA segment, single round, ends assumed
Construct (chain): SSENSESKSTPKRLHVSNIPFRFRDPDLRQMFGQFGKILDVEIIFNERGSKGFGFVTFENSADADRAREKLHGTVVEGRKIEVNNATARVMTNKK
Oligonucleotide | RBNS enrichment (R)
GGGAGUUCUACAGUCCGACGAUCAAAGGAACAUUUUAACUGUAAAGGCUAGAGACAAGAAGACAAAAGAGUAGAUCAUUUUAAUAAGAAUUAUUUAAUCCCAUACAAGUUUUCUUUGCAGGAGCUAGCCCAAAUGGAAUUCUCGGGUGCCAA | 0.552
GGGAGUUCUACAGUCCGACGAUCGCGUGCUGGGGCACCCUCCUGGCCAGGUGGUACUUUGGGGACUUGGGUGUUUGCAUCAUAAUGUCAUCUUGGGAAACAGAAAAGAAGGUGGGCCAACCCUCAUGUCCCCCUGGAAUUCUCGGGUGCCAA | 1.03
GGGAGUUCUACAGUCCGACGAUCUGCAACUACUCAGGAAUUAUAAAGAUUUUCUGAAAUCUGAGAAGUGGAAUAAGGAAACCCAGUGGAGCUAUUACACUUUUAAAUGUUCUAGCCAAAACAAAUUGCCAGUAUGGAAUUCUCGGGUGCCAA | 0.579
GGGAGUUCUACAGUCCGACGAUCUAGCUUCUCAUUACAGUAUUUCUAAUUGCUUCACACUUUACAGUUUUAAUACAAAGUACAAGCUCUACUUUUAUAACGUGUACUACAAGUUUCUUUAAAAGUAUUGUUGUUGGAAUUCUCGGGUGCCAA | 0.495
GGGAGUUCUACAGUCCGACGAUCCUGCCGGUGGCUUCUCGCUGCGCAGCCUCCAGGGCCCGAGGUGAUCCCGGUGGUGGGAUCCACGCUGGGCCUAGGAUGGGACGUUUUUCUUCUUGGGCCCGGUCCACAGGUGGAAUUCUCGGGUGCCAA | 0.185
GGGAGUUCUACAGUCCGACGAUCGACUUGCGGUUAAUUAUGCAAAUGAUAGUUUGUGAUAAUUGGUCCAGUUUUACGAACAACAGAUUUCUAAAUUAGAGAGGUUAACAAGACAGAUGAUUACUAUGCCUCAUUGGAAUUCUCGGGUGCCAA | 0.317
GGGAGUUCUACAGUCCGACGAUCAUGUGCUCGGUGUUCAGUGGUGUAUAUUUCUUCUCCCAGACAUGGGGCGUGUGCCCCAAGGGGUCUGAUCCCCUCCUUAGUCUUAGCUCAUGGGGCGGCUCAUGAGGAGCUGGAAUUCUCGGGUGCCAA | 0.533
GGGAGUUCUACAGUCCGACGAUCUAGUAAUGGAUUCAGUACUCCUCAACUCCUAAUGAUUGAGAAGAAGGCAAACGAUAAAGAAAUCCCUCUAUUACACGAAUAAAAUGUUUAAGAAAAGAAAAAAGAAAGGAUGGAAUUCUCGGGUGCCAA | 0.826

Set 3 — effect on: cell-free assay; method: competition with immobilised ligand; tested at: 1 µM
SMILES: CS(=O)(=O)c1cc(C2(NC(=O)c3cncc4c3cnn4-c3ccc(F)cc3)CC2)ccn1
target | remaining binding [%]
TGFBR2 (Homo sapiens, UniProt P37173) | 100
PIK3CA (Homo sapiens, UniProt P42336, E542K) | 80
WNK1 (Homo sapiens, UniProt Q9H4A3) | 100

Set 4 — method: protein-binding microarray; form: hairpin DNA; sample: in vitro; tested at: not given; baseline: not given; reading: higher = stronger binding
Target: Protein C-ets-1, full length (ETS1, Homo sapiens, UniProt P14921, residues 1-441)
Setting: whole hairpin DNA, median over replicate spots
Target sequence (chain): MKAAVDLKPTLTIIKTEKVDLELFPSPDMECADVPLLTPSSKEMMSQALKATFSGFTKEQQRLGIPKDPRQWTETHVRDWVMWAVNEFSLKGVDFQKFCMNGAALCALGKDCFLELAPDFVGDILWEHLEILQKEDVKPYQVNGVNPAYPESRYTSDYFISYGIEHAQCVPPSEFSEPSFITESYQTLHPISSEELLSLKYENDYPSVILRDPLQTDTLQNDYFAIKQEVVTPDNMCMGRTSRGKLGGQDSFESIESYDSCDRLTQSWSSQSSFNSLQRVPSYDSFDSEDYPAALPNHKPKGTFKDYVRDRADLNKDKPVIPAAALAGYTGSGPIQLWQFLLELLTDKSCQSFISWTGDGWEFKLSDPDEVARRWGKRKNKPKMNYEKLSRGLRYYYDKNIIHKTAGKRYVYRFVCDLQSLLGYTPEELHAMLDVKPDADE
Oligonucleotide | median fluorescence
GAGGCCAGTGGGAAGTTGCCTCCTGGCAACTTCCCACTGGCCTCACACTC | 991 a.u.
GAGGCCTGTCGGAAGTTGCCTCCTGGCAACTTCCGACAGGCCTCACACTC | 3050 a.u.
GAGGCCAGTCGGAAGTGGCCTCCTGGCCACTTCCGACTGGCCTCACACTC | 3320 a.u.
GAGGCCAGCCGCAAGTTGCCTCCTGGCAACTTGCGGCTGGCCTCACACTC (5mC at 12) | 538 a.u.
GAGGCCAGGCGGAAGTTGCCTCCTGGCAACTTCCGCCTGGCCTCACACTC | 6920 a.u.
GAGGCCAGTCGGGAGTTGCCTCCTGGCAACTCCCGACTGGCCTCACACTC | 556 a.u.
GAGGCCAGCCAGAAGTTGCCTCCTGGCAACTTCTGGCTGGCCTCACACTC | 544 a.u.
GAGGCCAGTCGGACGTTGCCTCCTGGCAACGTCCGACTGGCCTCACACTC (5mC at 14 30) | 738 a.u.

A few entries again (set 4):
Oligonucleotide | median fluorescence
GAGGCCTGTCGGAAGTTGCCTCCTGGCAACTTCCGACAGGCCTCACACTC | 3050 a.u.
GAGGCCAGTCGGAAGTGGCCTCCTGGCCACTTCCGACTGGCCTCACACTC | 3320 a.u.
GAGGCCAGCCGCAAGTTGCCTCCTGGCAACTTGCGGCTGGCCTCACACTC (5mC at 12) | 538 a.u.
GAGGCCAGGCGGAAGTTGCCTCCTGGCAACTTCCGCCTGGCCTCACACTC | 6920 a.u.
